Measurements pooled from the literature.
± marks the error that the study gave.
Method: steady-state kinetics
B1: UCK2 H117Y (Homo sapiens, UniProt Q9BZX2); chain MAGDSEQTLQNHQQPNGGEPFLIGVSGGTASGKSSVCAKIVQLLGQNEVDYRQKQVVILSQDSFYRVLTSEQKAKALKGQFNFDHPDAFDNELILKTLKEITEGKTVQIPVYDFVSYSRKEETVTVYPADVVLFEGILAFYSQEVRDLFQMKLFVDTDADTRLSRRVLRDISERGRDLEQILSQYITFVKPAFEEFCLPTKKYADVIIPRGADNLVAINLIVQHIQDILNGGPSKRQTNGCLNGYTPSRKRQASESSSRPH
B2: enzyme (Bacillus pumilus, UniProt A8FFI9); chain EARSIAWSVDEFFKNREGTFVIQEVKEKSPWVYNKKRAKERFAPQSTFKVANALIGLQTGAVRDEYDIKYWDGVKREIDNWNRDHTLGSGMRDSVVWYYQAMARDIGEERMNHWVKAIHYGNKDISGGIDQFWLSSTLRISPIEQVRFLKQLYEETLPFDLKNMRTVKRMMVQEEEKHATLYGKTGSGSDIGWYVGFIKHEHKTYILATNIKGTGIEAKDITYRILKKYHLMEASV
B3: moaA (Staphylococcus aureus, UniProt P69848); chain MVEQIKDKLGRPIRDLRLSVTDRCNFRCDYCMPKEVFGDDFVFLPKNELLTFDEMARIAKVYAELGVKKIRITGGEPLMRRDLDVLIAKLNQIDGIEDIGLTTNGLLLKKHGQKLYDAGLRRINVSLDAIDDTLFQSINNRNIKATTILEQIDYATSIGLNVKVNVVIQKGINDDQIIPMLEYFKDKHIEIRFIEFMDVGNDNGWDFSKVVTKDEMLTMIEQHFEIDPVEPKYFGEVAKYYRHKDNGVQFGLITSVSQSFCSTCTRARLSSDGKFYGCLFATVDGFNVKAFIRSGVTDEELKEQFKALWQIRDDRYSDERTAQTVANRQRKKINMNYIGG
B4: HCT R356E (Coleus scutellarioides, UniProt E8ZAP2); chain MKIHVRDSTLVRPSAATPAVSLWNSNVDLVVPNFHTPSVYFYRPSGADNFFDTAVMKAALGRALVSFYPMAGRLKRDEDGRVEIDCNAEGVLFVEAESDGTVDDYGDFAPSLELRRLIPAVDYSQGISAYPLLVLQVTFFKCGGVSLGVGMQHHAADGFSGLHFINTWSDMARGLDITLPPFIDRTLLSARDPPQPQFKHVEYQPPPAMKTYEPAETVVSIFKLTKDQLTTLKAKSKEDGNTTTYSSYEMLSGHVWRCTCLARGLPEEQETKLYIATDGRSRLQPQLPPGYFGNVIFTATPLAVAGDLGSKPVWYAASKIHDALARMDNDYLRSALDFLELQPDLKALVRGAHTFECPNLGITSWVRLPIHDADFGWGRPIFMGPGGIAYEGLSFVLPSPTNDGSLSVAISLQAEHMKLFEKLLYQI
B5: NahK (Pseudomonas putida, UniProt Q1XGK3); chain MNRTLTREQVLALAEHIENAELNVHDIGKVTNDFPEMTFADAYDVQWEIRRRKEARGNKIVGLKMGLTSWAKMAQMGVETPIYGFLADYFSVPDGGVVDCSKLIHPKIEAEISVVTKAPLHGPGCHLGDVIAAIDYVIPTVEVIDSRYENFKFDLISVVADNASSTRFITGGRMASLEEVDLRTLGVVMEKNGEVVELGAGAAVLGHPLSSVAMLANLLAERGEHIPAGTFIMTGGITAAVPVAPGDNITVRYQGLGSVSARFI
B6: Nudt8 (Mus musculus, UniProt Q9CR24); chain MLPDGLSAEDEQRCRQLLARTTARLRSRPAAAAVLVPLCLVRGVPALLYTLRSSRLVGRHKGEVSFPGGKCDPDDQDVIHTALRETQEELGLEVPKEHVWGVLQPVYDREKATIVPVLANVGPLDLQSLRPNLEEVDEVFEMSLAHLLQTQNQGYTHFCQGGHFSYTLPVFLHGPHRVWGLTAVITELTLKLLAPGFYQPSLAVPELPRG
B7: ycjR (Escherichia coli, UniProt P76044); chain MKIGTQNQAFFPENILEKFRYIKEMGFDGFEIDGKLLVNNIEEVKAAIKETGLPVTTACGGYDGWIGDFIEERRLNGLKQIERILEALAEVGGKGIVVPAAWGMFTFRLPPMTSPRSLDGDRKMVSDSLRVLEQVAARTGTVVYLEPLNRYQDHMINTLADARRYIVENDLKHVQIIGDFYHMNIEEDNLAQALHDNRDLLGHVHIADNHRYQPGSGTLDFHALFEQLRADNYQGYVVYEGRIRAEDPAQAYRDSLAWLRTC
B8: enzyme (Arabidopsis thaliana, UniProt Q9LTH2); chain MEEKQVKETRIVLVPVPAQGHVTPMMQLGKALHSKGFSITVVLTQSNRVSSSKDFSDFHFLTIPGSLTESDLQNLGPQKFVLKLNQICEASFKQCIGQLLHEQCNNDIACVVYDEYMYFSHAAVKEFQLPSVVFSTTSATAFVCRSVLSRVNAESFLIDMKDPETQDKVFPGLHPLRYKDLPTSVFGPIESTLKVYSETVNTRTASAVIINSASCLESSSLARLQQQLQVPVYPIGPLHITASAPSSLLEEDRSCVEWLNKQKSNSVIYISLGSLALMDTKDMLEMAWGLSNSNQPFLWVVRPGSIPGSEWTESLPEEFNRLVSERGYIVKWAPQMEVLRHPAVGGFWSHCGWNSTVESIGEGVPMICRPFTGDQKVNARYLERVWRIGVQLEGDLDKETVERAVEWLLVDEEGAEMRKRAIDLKEKIETSVRSGGSSCSSLDDFVNSM
B9: oxdC (Bacillus subtilis, UniProt O34714); chain MKKQNDIPQPIRGDKGATVKIPRNIERDRQNPDMLVPPETDHGTVSNMKFSFSDTHNRLEKGGYAREVTVRELPISENLASVNMRLKPGAIRELHWHKEAEWAYMIYGSARVTIVDEKGRSFIDDVGEGDLWYFPSGLPHSIQALEEGAEFLLVFDDGSFSENSTFQLTDWLAHTPKEVIAANFGVTKEEISNLPGKEKYIFENQLPGSLKDDIVEGPNGEVPYPFTYRLLEQEPIESEGGKVYIADSTNFKVSKTIASALVTVEPGAMRELHWHPNTHEWQYYISGKARMTVFASDGHARTFNYQAGDVGYVPFAMGHYVENIGDEPLVFLEIFKDDHYADVSLNQWLAMLPETFVQAHLDLGKDFTDVLSKEKHPVVKKKCSK
B10: cyc1 A236G (Streptomyces coelicolor, UniProt Q9K499); chain MHAFPHGTTATPTAIAVPPSLRLPVIEAAFPRQLHPYWPKLQETTRTWLLEKRLMPADKVEEYADGLCYTDLMAGYYLGAPDEVLQAIADYSAWFFVWDDRHDRDIVHGRAGAWRRLRGLLHTALDSPGDHLHHEDTLVAGFADSVRRLYAFLPATWNARFARHFHTVIEAYDREFHNRTRGIVPGVEEYLELRRLTFAHWIWTDLLEPSSGCELPDAVRKHPAYRRAALLSQEFGAWYNDLCSLPKEIAGDEVHNLGISLITHHSLTLEEAIGEVRRRVEECITEFLAVERDALRFADELADGTVRGKELSGAVRANVGNMRNWFSSVYWFHHESGRYMVDSWDDRSTPPYVNNEAAGEK
Sequence of UniProt Q27593 (whole entry, looked up): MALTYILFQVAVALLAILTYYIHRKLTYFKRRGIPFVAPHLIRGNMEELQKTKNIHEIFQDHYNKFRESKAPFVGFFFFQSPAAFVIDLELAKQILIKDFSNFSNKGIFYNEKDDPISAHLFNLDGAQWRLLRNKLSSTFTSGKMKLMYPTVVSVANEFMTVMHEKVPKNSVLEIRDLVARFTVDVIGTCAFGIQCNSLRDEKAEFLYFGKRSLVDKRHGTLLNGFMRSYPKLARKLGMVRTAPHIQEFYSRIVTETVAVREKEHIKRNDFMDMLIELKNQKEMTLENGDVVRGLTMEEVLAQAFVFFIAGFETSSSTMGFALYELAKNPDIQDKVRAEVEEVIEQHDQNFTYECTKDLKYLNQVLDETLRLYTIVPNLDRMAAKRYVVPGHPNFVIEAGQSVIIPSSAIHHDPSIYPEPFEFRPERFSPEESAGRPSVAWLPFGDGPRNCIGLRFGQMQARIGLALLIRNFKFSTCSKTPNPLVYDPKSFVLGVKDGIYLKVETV
Sequence of UniProt P0AFG3 (whole entry, looked up): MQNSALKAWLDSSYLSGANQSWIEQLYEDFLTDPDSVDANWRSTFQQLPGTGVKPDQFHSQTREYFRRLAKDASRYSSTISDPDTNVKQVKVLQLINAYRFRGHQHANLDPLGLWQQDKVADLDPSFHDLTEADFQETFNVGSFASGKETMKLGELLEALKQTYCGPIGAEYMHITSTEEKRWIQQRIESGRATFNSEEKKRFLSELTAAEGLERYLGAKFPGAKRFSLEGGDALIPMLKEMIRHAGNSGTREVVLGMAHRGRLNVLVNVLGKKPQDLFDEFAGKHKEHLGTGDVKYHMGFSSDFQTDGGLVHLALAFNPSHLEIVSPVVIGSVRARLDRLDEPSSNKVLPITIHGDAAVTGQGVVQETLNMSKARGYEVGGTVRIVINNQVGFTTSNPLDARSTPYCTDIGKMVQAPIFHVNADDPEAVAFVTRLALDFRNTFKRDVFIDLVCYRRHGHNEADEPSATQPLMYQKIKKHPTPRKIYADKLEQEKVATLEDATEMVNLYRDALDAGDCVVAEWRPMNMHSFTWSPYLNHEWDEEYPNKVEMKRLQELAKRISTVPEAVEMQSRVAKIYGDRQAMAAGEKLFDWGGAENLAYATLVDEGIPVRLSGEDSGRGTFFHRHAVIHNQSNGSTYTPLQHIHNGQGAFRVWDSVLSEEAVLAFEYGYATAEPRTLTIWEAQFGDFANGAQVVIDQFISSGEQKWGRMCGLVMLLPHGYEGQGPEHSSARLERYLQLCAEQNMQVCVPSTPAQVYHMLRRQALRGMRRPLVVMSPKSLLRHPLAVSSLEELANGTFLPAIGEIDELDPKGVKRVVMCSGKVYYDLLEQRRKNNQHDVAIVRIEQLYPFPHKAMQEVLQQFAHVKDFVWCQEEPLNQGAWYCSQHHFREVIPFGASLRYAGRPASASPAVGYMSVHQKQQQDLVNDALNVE
Sequence of UniProt Q9UBT6 (whole entry, looked up): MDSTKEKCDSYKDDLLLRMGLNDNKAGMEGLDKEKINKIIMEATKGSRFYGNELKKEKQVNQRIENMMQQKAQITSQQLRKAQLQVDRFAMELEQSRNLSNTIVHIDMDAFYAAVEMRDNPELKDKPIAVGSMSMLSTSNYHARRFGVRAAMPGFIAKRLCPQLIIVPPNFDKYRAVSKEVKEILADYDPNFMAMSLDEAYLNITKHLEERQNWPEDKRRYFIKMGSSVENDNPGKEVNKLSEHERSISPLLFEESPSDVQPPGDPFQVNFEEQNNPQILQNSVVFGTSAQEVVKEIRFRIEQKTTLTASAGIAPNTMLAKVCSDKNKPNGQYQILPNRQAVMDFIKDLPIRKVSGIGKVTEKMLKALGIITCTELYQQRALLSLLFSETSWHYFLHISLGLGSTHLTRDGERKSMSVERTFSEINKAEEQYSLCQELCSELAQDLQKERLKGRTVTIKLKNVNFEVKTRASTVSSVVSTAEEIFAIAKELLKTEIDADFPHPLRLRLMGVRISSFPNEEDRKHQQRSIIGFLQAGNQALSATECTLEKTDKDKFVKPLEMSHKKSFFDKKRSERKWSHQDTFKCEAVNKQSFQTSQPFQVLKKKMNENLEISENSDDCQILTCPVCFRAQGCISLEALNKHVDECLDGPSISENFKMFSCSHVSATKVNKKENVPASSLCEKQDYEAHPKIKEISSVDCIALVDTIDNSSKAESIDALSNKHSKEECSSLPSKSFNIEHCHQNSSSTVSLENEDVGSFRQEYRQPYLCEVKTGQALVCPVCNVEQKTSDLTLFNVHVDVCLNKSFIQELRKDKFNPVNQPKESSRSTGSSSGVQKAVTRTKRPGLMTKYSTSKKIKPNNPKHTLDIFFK

For `protein (Actinidia chinensis, UniProt H9M5U5)`, the kcat/Km was 69000 M⁻¹ s⁻¹ (CC(C)=CCC/C(C)=C/COP(=O)(O)OP(=O)(O)O; pH 7.5, room temperature, labelled compound, with: MgCl2 20 mM).
For `B1 (UCK2 H117Y)`, the kcat/Km was 47000 M⁻¹ s⁻¹ (Nc1ccn([C@@H]2O[C@H](CO)[C@@H](O)[C@H]2O)c(=O)n1; pH 7.2, 25 °C, KCl 100 mM, with: ATP 100–200 µM).
`POLK (Homo sapiens, UniProt Q9UBT6)` has a kcat/Km of 19000 M⁻¹ s⁻¹ (Nc1ccn([C@H]2C[C@H](O)[C@@H](COP(=O)(O)OP(=O)(O)OP(=O)(O)O)O2)c(=O)n1; pH 7.5, 23 °C, MgCl2 5 mM, with: G template).
`B2 (enzyme)` gave a kcat/Km of 4.7e+06 ± 1.4e+06 M⁻¹ s⁻¹ (Cc1onc(-c2ccccc2)c1C(=O)N[C@@H]1C(=O)N2[C@@H]1SC(C)(C)[C@@H]2C(=O)O; pH 7).
The kcat/Km of `B3 (moaA)` is reported as 533 ± 200 M⁻¹ s⁻¹ (Nc1nc2c(ncn2[C@@H]2O[C@H](COP(=O)(O)OP(=O)(O)OP(=O)(O)O)[C@@H](O)[C@H]2O)c(=O)[nH]1; pH 7.6, 25 °C, with: SAM, dithionite, MgCl2 1 mM).
`B4 (HCT R356E)` has a kcat/Km of 24.3 ± 0.6 M⁻¹ s⁻¹ (NCCc1ccc(O)c(O)c1; pH 8, pseudo-first-order, with: p-coumaroyl CoA).
For `AphC (Rhodococcus jostii, UniProt Q0S9X1)`, the kcat/Km was 206000 M⁻¹ s⁻¹ (CCc1ccc(O)c(O)c1; pH 8, 25 °C, apparent, with: O2).
For `B5 (NahK)`, the kcat/Km was 5e+06 M⁻¹ s⁻¹ (O=C(O)C/C=C/C(=O)C(=O)O; pH 7.4, 25 °C, sodium phosphate 20 mM, with: MgCl2 5 mM).
For `CYP6A8 (Drosophila melanogaster, UniProt Q27593)`, the kcat/Km was 63.3 ± 15 M⁻¹ s⁻¹ (CCCCCCCCCCCC(=O)O; DLPC; pH 7.4, 37 °C, total hydroxylation, with: P450 reductase, NADPH).
`B6 (Nudt8)` has a kcat/Km of 2670 M⁻¹ s⁻¹ (CC(=O)SCCNC(=O)CCNC(=O)[C@H](O)C(C)(C)COP(=O)(O)OP(=O)(O)OC[C@H]1O[C@@H](n2cnc3c(N)ncnc32)[C@H](O)[C@@H]1OP(=O)(O)O; pH 8.5, with: 2 mM Mn2+).
The kcat/Km of `enzyme (Mortierella alpina, UniProt U5Y3C6)` is reported as 2670 M⁻¹ s⁻¹ (CCCCCCCC/C=C\CCCCCCCC(=O)SCCNC(=O)CCNC(=O)[C@H](O)C(C)(C)COP(=O)(O)OP(=O)(O)OC[C@H]1O[C@@H](n2cnc3c(N)ncnc32)[C@H](O)[C@@H]1OP(=O)(O)O; pH 7.5, 28 °C).
`B7 (ycjR)` gave a kcat/Km of 130 ± 30 M⁻¹ s⁻¹ (CO[C@@H]1O[C@H](CO)[C@@H](O)C(=O)[C@H]1O; pH 8, 30 °C, with: MnCl2 0.5 mM, NADH 0.3 mM).
`B8 (enzyme)` gave a kcat/Km of 1230 M⁻¹ s⁻¹ (O=c1ccn([C@@H]2O[C@H](CO[P@@](=O)(O)O[P@@](=O)(O)O[C@H]3O[C@H](CO)[C@@H](O)[C@H](O)[C@H]3O)[C@@H](O)[C@H]2O)c(=O)[nH]1; pH 7.5, 25 °C).
`B9 (oxdC)` has a kcat/Km of 6310 M⁻¹ s⁻¹ (O=C(O)C(=O)O; pH 4.2, with: Mn 1.87 per monomer, Triton X-100.2%).
`sucA (Escherichia coli, UniProt P0AFG3)` gave a kcat/Km of 19.3 ± 1.9 M⁻¹ s⁻¹ (O=C(O)C(=O)CO; pH 6.8, 37 °C).
For `B10 (cyc1 A236G)`, the kcat/Km was 150000 ± 20000 M⁻¹ s⁻¹ (CC(C)=CCC/C(C)=C/CC/C(C)=C/CO[P@@](=O)(O)OP(=O)(O)O; pH 6.5, 30 °C, with: MgCl2 10 mM).
